Assay results collected from several papers.
A part holds a random share of what one study measured. Substitutions count along the parent as printed.

Set 1 — technique: universal PBM; form: double-stranded DNA, one strand shown; medium: in vitro; concentration: not given; direction: higher = stronger binding
Target: Sal-like protein 4, full length isoform B (SALL4, Homo sapiens, UniProt Q9UJQ4-2, residues 1-616)
Setting: 8-mer, flanks averaged, mean of replicates
| Strand | E-score |
| --- | --- |
| CAAACCCA | 0.095 |
| ACGATTAG | 0.125 |
| AATTTTGG | 0.244 |
| ATCACCAC | 0.0372 |
| CGAGCCAC | -0.207 |
| CGAGCCTA | -0.0662 |
| ACTGAATA | 0.261 |
| ACCTTTGA | -0.0383 |
| CGTTGCGC | -0.254 |
| CCATCCGG | -0.309 |
| GATTACAC | 0.123 |
| AGGACCTC | -0.178 |
| ATGCAATA | 0.271 |
| CAAAATAC | 0.272 |
| GGACATAC | 0.0262 |
| AGGGCGGG | -0.236 |
| GCAGCAGA | -0.171 |
| AATTCGTC | 0.0728 |
| CGACGCAC | -0.0467 |
| TCGTGCCA | -0.211 |
| AATGATGC | 0.0786 |
| GTGGGATA | 0.0203 |

Set 2 — target: CCNF, cyclin fold, Cln2 fusion (human); technique: yeast growth competition, sequencing; medium: yeast; setting: strong parent motif; reference: not given; direction: higher = stronger binding
Parent: BRCA2 docking peptide (human); CKKRRALDFLSRL
| Change | normalised enrichment score |
| --- | --- |
| L10A | 2.65 |
| R5A L7A | 2.21 |
| K3A | 5.46 |
| R5A | 3.08 |
| F9A | 2.45 |
| D8A | 2.18 |
| R5K | 1.21 |
| F9L | 2.04 |
| S11A | 2.83 |

Set 3 — technique: protein-binding microarray; form: double-stranded DNA, one strand shown; medium: in vitro; concentration: 0.8 µM; setting: whole 60-bp probe, no competitor; direction: higher = stronger binding; shared flanks, not repeated: … GTCTTGATTCGCTTGACGCTGCTG
Target: Centromere-binding protein 1, full length, N-terminal tag (CBF1, Saccharomyces cerevisiae, UniProt P17106, residues 1-351)
UniProt P17106, sequence (whole entry, looked up): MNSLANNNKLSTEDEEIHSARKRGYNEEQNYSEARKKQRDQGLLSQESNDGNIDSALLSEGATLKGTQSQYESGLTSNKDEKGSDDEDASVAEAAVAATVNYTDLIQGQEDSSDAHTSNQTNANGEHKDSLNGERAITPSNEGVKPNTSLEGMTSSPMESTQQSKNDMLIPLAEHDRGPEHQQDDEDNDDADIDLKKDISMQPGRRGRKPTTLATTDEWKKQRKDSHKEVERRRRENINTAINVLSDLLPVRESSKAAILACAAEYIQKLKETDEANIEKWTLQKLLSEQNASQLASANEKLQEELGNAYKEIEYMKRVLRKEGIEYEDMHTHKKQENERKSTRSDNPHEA
| Strand | fluorescence intensity [a.u.] |
| --- | --- |
| GAATGGTGAATTTACAACGTGTTCAATATACTTTAG | 672 |
| TGTACGAAGCTATACCACATGGGTATAGTAGTTAGG | 666 |
| GAAACTACTTTGTATCACGCTTGTGCTAACATCTAG | 570 |
| CTATACTTTTAATATCACGATGCTGTCTCTGAATTC | 732 |
| GAATCGGTTTATTGTCTCGTGGTCATTTGCGTTTAG | 1050 |
| CTAGCATATTTGTAAAACGTGCAAAAAAGTAAATTC | 778 |
| CTAATGTACATAAGTCACGTTTTTGCAGCCAATTTC | 2940 |
| CTACCCCCTCATCGTGATGTAGTCAACCCTCTTTTC | 523 |
| GAACTCTTTCCATCTGCCGTGACAGGGAAGCCTTAG | 569 |
| CTATAAACAATTCAACTGACATTAGATACATCATTC | 544 |
| CCTAACTACTATATTACCACCAGATAGCTTCGTACA | 543 |
| GAAAAACAATGGCGTGGGGTGATGAAATAAGCATAG | 570 |
| GAACACTTTGGTTATGTCACCATGGTCAGATGATAG | 946 |
| GAATTTGATGGCCGTCACATGGTACGCCACTAATAG | 2830 |
| CTACGTCATGAATAGCACGTTTACCTATACGAATTC | 621 |
| GAATTTCGTCATCCCCACGTTGTGCCATTAATTTAG | 625 |
| CTAAATGGACGACTCCACGTTGTAGTAGTTGTCTTC | 502 |

Set 4 — target: NFE2L3, bZIP domain (human); technique: DHFR protein complementation; medium: yeast; reference: wild-type JUN-FOS pair; direction: higher = stronger binding
Setting: single substitutions, most at no-binding floor
Parent: JUN, bZIP domain (human); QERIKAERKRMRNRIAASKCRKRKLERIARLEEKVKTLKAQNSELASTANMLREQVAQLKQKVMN; partner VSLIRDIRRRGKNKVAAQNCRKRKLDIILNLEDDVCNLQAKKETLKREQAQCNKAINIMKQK
| Change | binding fitness [natural log] |
| --- | --- |
| S43E | -1.15 |
| I28A | -1.39 |
| V35E | -1.48 |
| S47P | -1.52 |
| I28S | -1.49 |
| S47W | -1.37 |
| V35H | -1.63 |
| S43V | -1.52 |
| E44H | -1.54 |
| N42T | -1.44 |
| E32A | -1.24 |
| L38H | -1.48 |
| N42E | -1.5 |
| T48S | -1.32 |
| V35T | -1.55 |
| L52V | -1.55 |
| A57H | -1.59 |
| L52H | -1.55 |
| A29G | -1.5 |
| A29C | -1.46 |
| Q41S | -1.41 |
| Q55I | -1.51 |
| S47C | -1.53 |
| T37L | -1.35 |
| A46M | -1.58 |

Set 5 — technique: DHFR PCA, deep sequencing; medium: yeast; together with: (+)-ABA 58 µM; reference: wild-type fitted maximum; direction: higher = stronger binding
Target: ABI1, truncated, D143A, DHFR fusion (Arabidopsis thaliana)
Setting: methotrexate growth selection, single substitutions
Parent: PYL1, truncated, DHFR fusion (Arabidopsis thaliana); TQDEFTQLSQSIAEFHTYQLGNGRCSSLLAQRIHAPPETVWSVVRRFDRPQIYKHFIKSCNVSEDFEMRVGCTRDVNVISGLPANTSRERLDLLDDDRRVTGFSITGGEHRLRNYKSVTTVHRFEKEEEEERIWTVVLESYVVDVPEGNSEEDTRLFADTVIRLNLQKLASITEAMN; partner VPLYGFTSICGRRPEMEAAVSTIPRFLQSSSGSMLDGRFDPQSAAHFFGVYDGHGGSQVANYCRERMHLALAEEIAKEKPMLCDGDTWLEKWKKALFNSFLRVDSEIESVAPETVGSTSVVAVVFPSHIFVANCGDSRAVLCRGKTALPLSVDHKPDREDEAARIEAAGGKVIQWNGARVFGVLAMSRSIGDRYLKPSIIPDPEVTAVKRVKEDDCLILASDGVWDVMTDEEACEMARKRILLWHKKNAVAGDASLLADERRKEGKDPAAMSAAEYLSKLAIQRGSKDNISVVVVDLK
| Change | relative binding score [%] |
| --- | --- |
| D92V | 41.2 |
| Q10D | 96 |
| R123Y | 85.1 |
| G21F | 74.7 |
| V70H | 49.6 |
| S87C | 42.9 |
| V136K | 4.12 |
| R46A | 75.6 |
| H16I | -0.761 |
| I33F | -5.86 |
| I133P | 99.5 |
| S87T | 48.7 |
| G21T | 88.8 |
| K168M | 72.6 |
| E152A | 82.7 |
| Y141D | 0.57 |

Set 6 — technique: RNA Bind-n-Seq; form: RNA; medium: in vitro; concentration: 365 nM; reference: no-protein control; direction: higher = stronger binding
Target: RNA binding protein fox-1 homolog 2, RRM domain, GST-SBP tag (RBFOX2, Homo sapiens, UniProt O43251-10, residues 100-194)
Setting: natural RNA segment, single round, ends assumed
Shared flanks, not repeated: GGGAGUUCUACAGUCCGACGAUC … UGGAAUUCUCGGGUGCCAA
Target sequence (chain): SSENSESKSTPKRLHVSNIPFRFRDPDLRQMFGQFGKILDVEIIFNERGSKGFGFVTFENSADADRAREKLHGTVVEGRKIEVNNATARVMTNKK
| Strand | RBNS enrichment (R) |
| --- | --- |
| GUGGGCAGGGGCUGCAUUUUAUGAAACUGCCCAGCAAGCUGCGCUCCCUGGGGCCCCAGGAUCCACCUAACUGGCCUGGCACCUGGUGCCACGUGCUGCUGCCGCCAGGA | 1.17 |
| AACUUAAAUAUCUUUUUGAUGGUGGUGUUUCUUUGUGACUGAGCCAGUAGACUCACACUAUAUGCUUUUUUGGGUUUGCCCGUUCCUUCCCCCACCCCCCCAGUUUUUUC | 0.534 |
| AGAACCCCGUGGGGUGGGGGAGAGGAUGUUUCUGUGGGCCCCUUCACCCCUCCUCUGUCUGCACCUCUAAACCCCAGAGCCCUGGAGGGGAGAGACUGGACUCUAGCCAG | 0.863 |
| AAGGCUUGUAACCAAAACAAGCAAAAAGAAACUUUAGCUGUUUAACUAUCACCUCUCUAAUUUAAAAUGCAUGAAAAUUAAUACUUUGUUUUUGUUUUUUUUUUGGAAAC | 5.15 |
| UUAUCUGUAGAGUACCGGAUAGUGUUUGCUUUUUCCUCCCAAGCUGACAGAAGCUGGGCAUCAGUGAUCUGUUGUGUUGGAUUAAUAGGUCCUUCCCCAAAUGGGACCUG | 0.484 |
| AGGUUAGGAGCUGUUGACUCAGGAUGAGGAAGUAUGGUCUUUAAAAAAAACAAAAUAUAUUUUAGAUUUCUCCCCUAAAGUUAGUUAGAGAAAAAGGUCUAUUCUUCAGC | 0.647 |
| UGGUAGCCCUUGAGCUCUAAUUAAGAGAGAUCCAAACCACUCAGUACCCACUGGGCAGUGGGAAGGCCUACCGACUUACUUUAUCAUUGAGGGCUUACUGAUACAAUGAA | 0.326 |
| CUGUUUGACAGUUUAACUCAAGUCAUGCUUCAAACUGUUUUAAUGAUCAAAUCAAGACACAUUUCAUUUUACAUUUUAUUAUUGUACAGUUUUUGUUUCGGAUGAUGAUC | 0.328 |
| CACUUCUGAGGAGACUGUACAGCCCGUUUUGUGCCUGUGUGUGUGUUCAUGGCCUGUAAGUGUACCCCAAGCACUGUGGGCGGGAGCUACCACUUCUUUGAGAACCUCUG | 0.442 |
| AGGUACUCGGCGCCCUGUGGACUGUGUGGAAACUGAUUUUUCUUUUUUCUAUACUGAAUACCCUUUGAGAUUUGUGUGGGACAUGGGUCCAUGUGGGUUUAGUGACAGAG | 0.379 |
| UGUGUGAUCCUUCCCCUCCCUGUCGCCCACUCCUCCCUCCUCUGGCUAUCCUACCCUGUCUGUGGGCUCUUUUACUACCAGCCUAUGCUGUGGGACUGUCAUGGCAUUUA | 0.619 |
| GAAGAAAAAAGUUGGCAUUUCUUGGUCCUCCGUUCAUAACACAAAGCAGAGUAGUAUUUUUAUAUUUAAAUGUUAAAAACAAAAAAGUUAUAUAUAUAUGGAUGUGUGGA | 0.83 |
